Assay results from different studies.
Parts stem from different laboratories: compare values within a part only. Several values in a cell are separate wells, animals, samples, runs or records.

Series 1 — observed: enzyme activity; action: inhibitor; concentration: 0.5 µM; reference: control
Target: Beta-adrenergic receptor kinase 1 (GRK2, Homo sapiens, UniProt P25098)
Target sequence (P25098 1-689): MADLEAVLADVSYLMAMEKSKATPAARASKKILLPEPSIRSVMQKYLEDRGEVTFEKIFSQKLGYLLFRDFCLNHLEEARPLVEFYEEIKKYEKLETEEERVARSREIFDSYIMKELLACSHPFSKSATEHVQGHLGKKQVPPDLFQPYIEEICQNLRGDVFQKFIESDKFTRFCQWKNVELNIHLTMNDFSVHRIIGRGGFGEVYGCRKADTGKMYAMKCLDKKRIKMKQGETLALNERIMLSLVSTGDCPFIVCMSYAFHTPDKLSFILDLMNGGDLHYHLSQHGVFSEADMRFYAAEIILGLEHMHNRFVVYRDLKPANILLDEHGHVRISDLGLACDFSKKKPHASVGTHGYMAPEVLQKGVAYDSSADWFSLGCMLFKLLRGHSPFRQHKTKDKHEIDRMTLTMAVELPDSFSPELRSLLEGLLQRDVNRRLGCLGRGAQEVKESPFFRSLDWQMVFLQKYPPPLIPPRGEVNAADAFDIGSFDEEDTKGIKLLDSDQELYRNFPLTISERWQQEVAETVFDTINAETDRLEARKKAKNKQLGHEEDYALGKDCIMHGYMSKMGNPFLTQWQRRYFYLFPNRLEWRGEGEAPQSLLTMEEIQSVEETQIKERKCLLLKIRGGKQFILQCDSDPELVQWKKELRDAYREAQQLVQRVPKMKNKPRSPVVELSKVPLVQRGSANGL
| SMILES | remaining activity [%] |
| --- | --- |
| Cc1nc2cc3nc(-c4cccs4)cnc3cc2n1C | 83.7 |
| Nc1cccc(-c2cc3c(Oc4cccc(O)c4)ncnc3[nH]2)c1 | 108 |
| Cn1nc2c3c(cccc31)C(=O)c1ccccc1-2 | 103 |
| c1ccc(-c2cnc(Nc3ccc(OCCN4CCCC4)cc3)s2)cc1 | 95.8 |
| CCN(CC)CCNC(=O)c1c(C)[nH]c(/C=C2\C(=O)Nc3ccc(Cl)cc32)c1C | 104 |
| O=c1cc(-c2cccc3c2Sc2ccccc2S3)oc(N2CCOCC2)c1 | 79 |

Series 2 — sample: plasma; route: oral
SMILES: COc1ccc(-c2c(Nc3ccccn3)[nH]c3c(C4=CCCCC4)c(-c4ccccc4)nn3c2=O)cc1
| host | dose | time | setting | plasma concentration, geometric mean [ng/mL] |
| --- | --- | --- | --- | --- |
| cancer patients | 100 mg | 72 h post-dose | single dose | 151 |
| cancer patients | 100 mg | 3 h post-dose | single dose | 1100 |
| cancer patients | 200 mg | 24 h post-dose | single dose | 877 |
| cancer patients | 150 mg | 1 h post-dose | single dose | 416 |
| human patients | 100 mg once daily | 0.5 h | cycle 1 | 2490 |
| cancer patients | 200 mg | 72 h post-dose | single dose | 280 |
| cancer patients | 50 mg | 24 h post-dose | single dose | 175 |
| human patients | 150 mg once daily | 4 h | cycle 1 | 4430 |
| cancer patients | 150 mg | 4 h post-dose | single dose | 1240 |

Series 3 — host: human; sample: microsomes or S9; concentration: 2 µM; time: 0.5 h
| SMILES | remaining compound [%] |
| --- | --- |
| CCCOc1ccc2c(c1)C(O)CC1(CCNCC1)O2 (stereo not shown) | 72.5 |
| Cc1cc(NC(C)c2cc(C)n(C)n2)cc(C)c1Cl (stereo not shown) | 13.7 |
| COc1ccccc1Cn1c(C(=O)NCC2CC2)cc2sccc21 | 2.28 |
| CCNc1nc(NC(C)(C)C)nc(Oc2ccc(=O)n(CC)n2)n1 | 59.2 |
| CC(Oc1ccccc1)C(=O)Nc1c(-c2ccccc2)nc2sccn12 (stereo not shown) | 10.7 |
| Cn1cc(S(=O)(=O)Nc2nc3ccccc3nc2Nc2cc(Cl)ccc2O)cn1 | 40.8 |

Further values, each from its own experiment
| Structure (SMILES) | cell line | technique | concentration | time | endpoint | result |
| --- | --- | --- | --- | --- | --- | --- |
| Cn1cncc1[C@@](O)(COc1ccc(C#N)cc1-c1ccc(OC(F)(F)F)cc1)c1ccc(C#N)cc1 | HEK293T | high-content imaging | 10 µM | 0 h | cells with altered tubulin phenotype | 0.21% and 0.74% |

Repeated from above (series 2):
| host | dose | time | setting | plasma concentration, geometric mean [ng/mL] |
| --- | --- | --- | --- | --- |
| cancer patients | 150 mg | 4 h post-dose | single dose | 1240 |
